Published values of several laboratories.
Protocols differ between the studies behind these lines. Numbers after ± are the reported error.

For `O=C1C2=Nc3ccccc3CN2C(=S)N1c1ccccc1`, IC50 read “inactive” (CCRF-CEM; cell viability, resazurin; 72 h).
With `Cc1ccc([N+](=O)[O-])cc1S(=O)(=O)N(C)/N=C/c1cnc2ccc(Br)cn12` the IC50 was 2.23 µM (SF-268; MTS; NCI60 panel).
For `O=C(CCCCCONC(=O)c1nc(-c2ccncc2)cs1)NO`, the IC50 was 37.2 µM (neonatal foreskin fibroblasts; cytotoxicity, sulforhodamine B; 72 h).
The IC50 of `COc1ccc(CC[C@H]2OC(=O)[C@@H]3CCCCN3C(=O)C(=O)C(C)(C)COC(=O)C=CCCN(C)C(=O)[C@H](CC(C)C)N(C)C(=O)[C@H]3CCCN3C(=O)[C@@H](Cc3ccccc3)N(C)C(=O)[C@@H](Cc3ccccc3)NC(=O)CCC(=O)Nc3cccc2c3)cc1OC` is reported as 3.4 ± 0.8 µM (HUVEC; thymidine uptake, inhibitor).
The IC50 of `CCCc1cc2cc(-n3nc(C(F)F)c4c3CC3(CCC3)CC4=O)cc(N3CCC(O)CC3)c2c(=O)[nH]1` is reported as 3.11 µM (SK-OV-3; cell growth or viability, MTS).
`Cc1nc(=S)[nH]c(C)c1/N=N/c1nnc(S)[nH]1` has an IC50 of 16.1 ± 1.86 µg/mL (Vero; MTT; 72 h).
`NCCOc1cc(NC(=O)c2cc(OCc3cn(Cc4ccc(C(=O)O)cc4)nn3)cc(C(=O)Nc3cc(OCCN)c4ccccc4n3)n2)nc2ccccc12` gave an IC50 of over 40 µM (U2OS; cell growth or viability, ATP luminescence; 72 h).
The IC50 of `COc1ccc(CC[C@H]2OC(=O)[C@@H]3CCCCN3C(=O)C(=O)C(C)(C)COC(=O)C=CCCN(C)C(=O)[C@H](Cc3ccccc3)N(C)C(=O)[C@H]3CCCN3C(=O)[C@H](CC(C)C)N(C)C(=O)[C@H](Cc3ccccc3)NC(=O)CCC(=O)Nc3cccc2c3)cc1OC` is reported as over 20 µM (HUVEC; thymidine uptake, inhibitor).
For `C[C@H](c1ccccc1)N1C(=O)C2=Nc3ccc(F)cc3CN2C1=S`, the IC50 was 0.516 µM (CCRF-CEM; cell growth or viability, resazurin; 72 h).
The IC50 of `CC1(C)CCC(CN2CCN(c3ccc(C(=O)NS(=O)(=O)c4ccc(NCC5CCOCC5)c([N+](=O)[O-])c4)c(Oc4cnc5[nH]ccc5c4)c3)CC2)=C(c2ccc(Cl)cc2)C1` is reported as 0.013 ± 0.0023 µM (RS4-11; caspase-3/7 activation; 4 h).
`CCN(CC)CCCC(C)N(CCCN(C)CCCNC(=O)O[C@H]1CC[C@@]2(C)C(=CC[C@H]3[C@@H]4CC[C@H]([C@H](C)CCCC(C)C)[C@@]4(C)CC[C@@H]32)C1)c1c2ccc(Cl)cc2nc2ccc(OC)cc12` (stereo partly shown) gave an IC50 of over 100 µM (ARPE-19; cytotoxicity, CCK-8; 48 h).
For `CC(C)(C)c1cnc(CSc2cnc(NC(=O)C3CCN(C(=O)CCCCCCN4Cc5cc6c(cc5C4)C(=O)N(C4CCC(=O)NC4=O)C6=O)CC3)s2)o1` (stereo not shown), the IC50 was 0.0403 µM (REH; cell growth or viability, MTT).
For `C[C@H](c1ccccc1)N1C(=O)C2=Nc3ccccc3CN2C1=S`, the IC50 was 0.516 µM (CCRF-CEM; cell growth or viability, resazurin; 72 h).
The IC50 of `Cc1cnc2nc1Nc1cccc(c1)COCCCCOCc1cc(ccc1OCCN1CCCC1)N2` is reported as 6.57 µM (HEL 92.1.7 JAK2 V617F; cell growth, CCK-8).
For `CNS(=O)(=O)Nc1nccc(Cc2c(C)c3ccc(Oc4ncccc4F)cc3oc2=O)c1F`, the IC50 was over 1 µM (SKGT4; cell viability; 7 days).
`N#Cc1c(N)nc2c(c1-c1ccc[nH]1)Cc1cc(O)ccc1-2` has an IC50 of 0.6 µM (HuT78; cell growth or viability, ATP luminescence).
With `CC[C@H](C)[C@H](NC(=O)[C@H](CCCCN)NC(=O)[C@H]1CCC[C@@H]1NC(=O)[C@H](CC(C)C)NC(=O)CN)C(=O)N[C@@H](C)CC(=O)N[C@@H](CCCCN)C(=O)N[C@@H](CCCCN)C(=O)N[C@H]1CCC[C@@H]1C(=O)N[C@H](C(=O)N[C@@H](CCCCN)C(=O)N[C@@H](C)CC(=O)N[C@@H](Cc1ccccc1)C(N)=O)[C@@H](C)CC` the IC50 was 461 µg/mL (HUVEC; cytotoxicity).
The IC50 of `O=C(CCc1ccco1)N1C(=O)C2(NC(c3ccc(F)cc3)C3(C(=O)Nc4ccccc43)N2Cc2ccc(F)cc2)c2ccccc21` (stereo not shown) is reported as over 100 µM (L02; cell growth or viability, MTT; 48 h).
`COc1ccc(CC[C@H]2OC(=O)[C@@H]3CCCCN3C(=O)C(=O)C(C)(C)COC(=O)C=CCCN(C)C(=O)[C@H](Cc3ccccc3)NC(=O)[C@H](Cc3ccccc3)N(C)C(=O)[C@@H]3CCCN3C(=O)[C@@H](CC(C)C)N(C)C(=O)CCC(=O)Nc3cccc2c3)cc1OC` has an IC50 of over 20 µM (HUVEC; thymidine uptake, inhibitor).
For `CC[C@H](NC(=O)[C@H](CCCCN)NC(=O)[C@H]1CCC[C@@H]1NC(=O)[C@@H](NC(=O)[C@H](CCCCN)NC(=O)[C@H](CCCCN)NC(=O)C[C@@H](NC(=O)[C@@H](NC(=O)[C@H](CCCCN)NC(=O)[C@H](Cc1ccccc1)NC(=O)[C@H]1CCC[C@@H]1NC(=O)CN)[C@@H](C)CC)[C@@H](C)CC)[C@@H](C)CC)C(=O)N[C@@H](Cc1ccccc1)C(N)=O`, the IC50 was 13.7 µg/mL (HUVEC; cytotoxicity).
`CCCN1C(=O)C2=Nc3ccccc3CN2C1=S` gave an IC50 of 33.8 µM (CCRF-CEM; cell growth or viability, resazurin; 72 h).
With `Cc1ccc(-c2ccc(C)cn2)nc1.[Co+2].[O-]c1c(I)cc(Cl)c2cccnc12.[O-]c1c(I)cc(Cl)c2cccnc12` the IC50 was 63.89 ± 0.49 µM (HL-7702 normal hepatocytes; cell viability, MTT; 48 h).
`Cc1nc(Nc2ccc3c(c2)/C(=C/c2cn(C)c4ccccc24)C(=O)N3C)c2ccccc2n1` has an IC50 of 6.93 µM (H22; cell growth or viability, MTT).
`CC(C)OC(=O)[C@H](CO)NCc1cc(Cl)c(OCc2cccc(-c3ccccc3)c2Br)cc1OCc1cccnc1` has an IC50 of over 10 µM (human Hepatocyte; cell growth or viability, MTT).
`O=C(NCc1cc(F)cc(F)c1)[C@@]1(O)CCN(c2ccc3[nH]ccc3c2)C1=O` gave an IC50 of over 10 µM (RXF 631; colony formation).
The IC50 of `COc1ccc(CC[C@H]2OC(=O)[C@@H]3CCCCN3C(=O)C(=O)C(C)(C)COC(=O)C=CCCN(C)C(=O)[C@H](CC(C)C)N(C)C(=O)[C@H]3CCCN3C(=O)[C@H](CC(C)C)N(C)C(=O)[C@H](Cc3ccccc3)NC(=O)CCC(=O)Nc3cccc2c3)cc1OC` is reported as 0.787 ± 0.15 µM (HUVEC; thymidine uptake, inhibitor).
`O=C1C(Cl)=C(Cl)C(=O)c2c(O)ccc(O)c21` gave an IC50 of 0.27 µM (MOLT-3; cell growth or viability, XTT).
`CC(C)c1ccc2oc3nc(N)c(C(=O)O)cc3c(=O)c2c1` has an IC50 of over 100 µM (ARPE-19; cytotoxicity, CCK-8; 48 h).
With `COc1ccc(CC[C@H]2OC(=O)[C@@H]3CCCCN3C(=O)C(=O)C(C)(C)COC(=O)C=CCCN(C)C(=O)CN(C)C(=O)[C@H]3CCCN3C(=O)[C@H](CC(C)C)N(C)C(=O)[C@H](Cc3ccccc3)NC(=O)CCC(=O)Nc3cccc2c3)cc1OC` the IC50 was over 20 µM (HUVEC; thymidine uptake, inhibitor).
With `Cc1c(CN(C)C(=O)/C=C/c2cnc3c(c2)CC(N)C(=O)N3)oc2ccccc12` (stereo not shown) the IC50 was 52.2 µM (IMR-90; cell growth or viability, resazurin; 72 h).
For `CCCC[N+]1=c2cc3c4cc2[O][Mn-2]1(=[C]=O)(=[C]=O)(=[C]=O)[n+]1ccc(cc1)C(=O)Nc1ccccc1NC(=O)c1cc[n+](cc1)[Mn-2](=[C]=O)(=[C]=O)(=[C]=O)([O]3)[N+]=4CCCC`, the IC50 was over 50 µM (HEK293; cell growth, MTT; 48 h, LED photolysed 1 h).
The IC50 of `c1ccc2nc3c4cccnc4c4ncccc4c3nc2c1` is reported as over 50 µM (L02; cell growth or viability, MTT; 48 h).
`O=C1Nc2ccccc2/C1=N/c1ccc(Cl)cc1Br` gave an IC50 of 25.8 µM (L02; cell growth or viability, MTT; 48 h).
With `CC(C)c1ccc(N(C)c2ccc3c(c2)OCC[C@H]3CNc2cnccc2C(=O)O)cc1` the IC50 was 0.0149 µM (Daudi; cell growth or viability, ATP luminescence; 7 days).
For `COc1ccc(CC[C@H]2OC(=O)[C@@H]3CCCCN3C(=O)C(=O)C(C)(C)COC(=O)C=CCCN(C)C(=O)[C@H](CC(C)C)N(C)C(=O)[C@H]3CCCN3C(=O)[C@H](CCc3ccccc3)NC(=O)[C@H](c3ccccc3)NC(=O)CCC(=O)Nc3cccc2c3)cc1OC`, the IC50 was 0.015 ± 0.002 µM (HUVEC; thymidine uptake, inhibitor).
`NC(NN=Cc1ccc([N+](=O)[O-])o1)=[S+][Au-][Cl]` gave an IC50 of over 100 µM (IMR-90; cell growth or viability, resazurin).
`COc1ccc(CN2C3(NC(c4ccc(OC)cc4)C24C(=O)Nc2ccccc24)C(=O)Nc2ccccc23)cc1` (stereo not shown) gave an IC50 of over 100 µM (L02; cell growth or viability, MTT; 48 h).
`NC(=O)c1ccc(-c2ccccc2Cl)c2c3c([nH]c12)CC[C@H](N)C3` has an IC50 of 0.0209 µM (MOLT-4; cell growth or viability).
For `Cn1ncc(-c2ccc3c(=O)[nH]nc(CN)c3c2)c1-c1c(F)c(Cl)cc(OC2CC2)c1C#N`, the IC50 was 0.13 µM (HCC1395; cell viability, inhibitor, CellTiter-Glo; 120 h, baseline-subtracted).
For `COc1ccc2c(c1)CN1C(=S)N([C@H](C)c3ccccc3)C(=O)C1=N2`, the IC50 was 1.53 µM (CCRF-CEM; cell growth or viability, resazurin; 72 h).
`Cc1ccc2c(Cl)cc(Cl)c([O-])c2n1.Cc1ccc2c(Cl)cc(Cl)c([O-])c2n1.[Co+2].c1cnc2c(c1)ccc1cccnc12` gave an IC50 of 71.25 ± 0.22 µM (HL-7702 normal hepatocytes; cell viability, MTT; 48 h).
With `COc1ccc(CC[C@H]2OC(=O)[C@@H]3CCCCN3C(=O)C(=O)C(C)(C)COC(=O)C=CCCN(C)C(=O)[C@H](CC3CCCCC3)NC(=O)[C@@H](Cc3ccccc3)N(C)C(=O)[C@@H]3CCCN3C(=O)[C@H](CC(C)C)N(C)C(=O)CCC(=O)Nc3cccc2c3)cc1OC` the IC50 was over 20 µM (HUVEC; thymidine uptake, inhibitor).
The IC50 of `CCOc1cncc(-c2ccc(NC(=O)C3(c4ccnc(NS(=O)(=O)C5CC5)n4)CCOCC3)nc2)n1` is reported as 0.017 µM (MOLT-3; cell growth or viability, ATP luminescence; 72 h).

For quick reference, copied from above:
`CCN(CC)CCCC(C)N(CCCN(C)CCCNC(=O)O[C@H]1CC[C@@]2(C)C(=CC[C@H]3[C@@H]4CC[C@H]([C@H](C)CCCC(C)C)[C@@]4(C)CC[C@@H]32)C1)c1c2ccc(Cl)cc2nc2ccc(OC)cc12` (stereo partly shown) gave an IC50 of over 100 µM (ARPE-19; cytotoxicity, CCK-8; 48 h).
For `CC(C)(C)c1cnc(CSc2cnc(NC(=O)C3CCN(C(=O)CCCCCCN4Cc5cc6c(cc5C4)C(=O)N(C4CCC(=O)NC4=O)C6=O)CC3)s2)o1` (stereo not shown), the IC50 was 0.0403 µM (REH; cell growth or viability, MTT).
For `C[C@H](c1ccccc1)N1C(=O)C2=Nc3ccccc3CN2C1=S`, the IC50 was 0.516 µM (CCRF-CEM; cell growth or viability, resazurin; 72 h).
The IC50 of `Cc1cnc2nc1Nc1cccc(c1)COCCCCOCc1cc(ccc1OCCN1CCCC1)N2` is reported as 6.57 µM (HEL 92.1.7 JAK2 V617F; cell growth, CCK-8).
For `CNS(=O)(=O)Nc1nccc(Cc2c(C)c3ccc(Oc4ncccc4F)cc3oc2=O)c1F`, the IC50 was over 1 µM (SKGT4; cell viability; 7 days).
`N#Cc1c(N)nc2c(c1-c1ccc[nH]1)Cc1cc(O)ccc1-2` has an IC50 of 0.6 µM (HuT78; cell growth or viability, ATP luminescence).
